{"data": "Measurements of several laboratories", "note": "Numbers after ± are the reported error."}
{"Molecule": "C[C@@H]1CN(c2c(F)c(N)c3c(=O)c(C(=O)O)cn(C4CC4)c3c2F)C[C@H](C)N1", "test system": "male Hartley guinea pig, anaesthetized", "setting": "intravenous infusion, 3 mg/kg, 10 min infusion", "scale": "baseline: baseline", "measurement": "QTc change", "value": "6.6 ± 0.9%"}
{"Molecule": "CC(C)(Oc1ccc(CCNC(=O)c2ccc(Cl)cc2)cc1)C(=O)O", "test": "shake-flask", "test system": "Captex 355", "setting": "37 °C", "measurement": "thermodynamic solubility", "value": "0.22 ± 0.01 mg/g"}
{"Molecule": "CS/C(S)=N/CCCC[S+](C)[O-] (racemic)", "test": "RT-PCR, measured: Cyp2c6", "test system": "rat, liver", "setting": "oral gavage, 200 mg/kg, dosed for four days", "scale": "baseline: vehicle", "measurement": "mRNA fold change", "value": 1.12}
{"Molecule": "acyl ghrelin (human)", "test system": "wild-type mice, pons and medulla", "setting": "intravenous, dose not given, 10 min, vascular space corrected", "measurement": "tissue/serum ratio", "value": "8.09 µL/g"}
{"Molecule": "COC(=O)C[C@](O)(CCCC(C)(C)O)C(=O)O[C@@H]1C(OC)=C[C@]23CCCN2CCc2cc4c(cc2[C@H]13)OCO4", "test system": "CD1 mice, esophagus", "setting": "oral, 1 mg/kg, 8 h", "measurement": "tissue concentration", "value": "not detected"}
{"Molecule": "O=C(O)c1cc(/N=N/c2ccc(S(=O)(=O)Nc3ccccn3)cc2)ccc1O", "test": "shake-flask", "test system": "polysorbate 80", "setting": "37 °C", "measurement": "thermodynamic solubility", "value": "11.4 ± 0.63 mg/g"}
{"Molecule": "O=C(NC[C@H]1CN(c2ccc(N3CCOCC3=O)cc2)C(=O)O1)c1ccc(Cl)s1", "test system": "Sprague-Dawley rat, male, plasma", "setting": "oral, 10 mg/kg", "measurement": "terminal half-life", "value": "226 ± 21.6 min"}
{"Molecule": "CNCc1ccc(-c2[nH]c3cc(F)cc4c3c2CCNC4=O)cc1", "test system": "human patients, plasma", "setting": "oral, 840 mg twice daily, day 15, steady state, arithmetic mean", "measurement": "AUC(0-t)", "value": "29000 ng·h/mL"}
{"Molecule": "N[C@@H](CC(=O)N1CCn2c(nnc2C(F)(F)F)C1)Cc1cc(F)c(F)cc1F", "test system": "healthy Korean subjects, plasma", "setting": "oral, 100 mg single dose, ABCB1 C3435T CT", "measurement": "AUC(0-2 h)", "value": "465 ± 181 ng·h/mL"}
{"Molecule": "[2H]C([2H])([2H])Oc1cc2c(cc1OC([2H])([2H])[2H])C1CC(=O)C(CC(C)C)CN1CC2 (stereo not drawn)", "test": "measured: deuterated α-HTBZ", "test system": "healthy human volunteers, plasma", "setting": "oral, 12 mg single dose, standard meal", "measurement": "dose-normalized Cmax", "value": "1.7 ng/mL"}
{"Molecule": "Cc1cc(-c2cc(OC(=O)c3ccccc3)ccc2Cl)cc2nnc(Nc3ccc(OCCN4CCCC4)cc3)nc12", "test system": "Long Evans rat, retina", "setting": "topical, 1%, 24 h", "measurement": "concentration", "value": "7 nM"}
{"Molecule": "CC(C)[C@H](NC(=O)[C@@H]1CCCN1C(=O)[C@H](CCCNC(=N)N)NC(=O)[C@H](CS)NC(=O)[C@H](Cc1c[nH]c2ccccc12)NC(=O)[C@H](CCCNC(=N)N)NC(=O)[C@@H](Cc1ccccc1)NC(=O)[C@H](Cc1c[nH]cn1)NC(=O)[C@H](CCC(=O)O)NC(=O)[C@H](CS)NC(=O)[C@H](CS)NC(=O)[C@H](CCCCN)NC(=O)[C@@H]1CC(=O)N[C@@H](CCCNC(=N)N)C(=O)N[C@@H](C(C)C)C(=O)N[C@@H](CC(=O)O)C(=O)N[C@H](Cc2ccc(O)cc2)C(=O)N1)C(N)=O [technetium-99m labelled]", "test system": "C57 mouse, female, B16/F1 melanoma, bone", "setting": "intravenous, 2 h, with: NDP-MSH 10 µg co-injected", "measurement": "tissue uptake", "value": "0.46 ± 0.1 %ID/g"}
{"Molecule": "CC1(C)Oc2cc3oc(=O)ccc3cc2C[C@@H]1O", "test system": "CD-1 mouse, male", "setting": "oral gavage, 80 mg/kg daily, 4 weeks, subchronic safety study", "measurement": "body weight", "value": "36.5 ± 1.71 g"}
{"Molecule": "CCN(CC)CCNC(=O)c1c(C)[nH]c(/C=C2\\C(=O)Nc3ccc(F)cc32)c1C", "test system": "human", "setting": "oral, 50 mg/day, day 15-29, NNRTI group", "measurement": "Cmin,ss", "value": "42.1 ± 3.1 ng/mL"}
{"Molecule": "CN[C@H](CC(C)C)C(=O)N[C@H]1C(=O)N[C@@H](CC(N)=O)C(=O)N[C@H]2C(=O)N[C@H]3C(=O)N[C@H](C(=O)N[C@H](C(=O)O)c4cc(O)cc(O)c4-c4cc3ccc4O)[C@H](O)c3ccc(c(Cl)c3)Oc3cc2cc(c3O[C@@H]2O[C@H](CO)[C@@H](O)[C@H](O)[C@H]2O[C@H]2C[C@](C)(N)[C@H](O)[C@H](C)O2)Oc2ccc(cc2Cl)[C@H]1O", "test": "LC-MS/MS", "test system": "New Zealand White rabbit, tibial medullary bone", "setting": "intravenous, 30 mg/kg, 30 min after infusion", "measurement": "peak drug concentration", "value": "164 ng/µL"}
{"Molecule": "Cn1cc(C[C@H](N)C(=O)O)c2ccccc21", "test system": "domestic pig, inguinal region", "setting": "sc, 1 g daily for five days", "measurement": "skin temperature", "value": "39.1 ± 0.1 °C"}
{"Molecule": "O=C(C1CCCCC1)N1CC(=O)N2CCc3ccccc3C2C1 (stereo not drawn)", "test": "shake-flask", "test system": "PEG400", "setting": "37 °C", "measurement": "thermodynamic solubility", "value": "28 ± 1.08 mg/g"}
{"Molecule": "CCCC[C@@H]1NC(=O)[C@@H](NC(=O)[C@H](CCC(=O)O)NC(=O)CNC(=O)CN2CCN(CC(=O)O)CCN(CC(=O)O)CCN(CC(=O)O)CC2)CCCCNC(=O)C[C@@H](C(N)=O)NC(=O)[C@H](C(C)C)NC(=O)[C@@H]2CCCN2C(=O)[C@H](CCCNC(=N)N)NC(=O)CNC(=O)[C@H](Cc2c[nH]c3ccccc23)NC(=O)[C@H](CCCNC(=N)N)NC(=O)[C@@H](Cc2ccccc2)NC(=O)[C@H](Cc2c[nH]cn2)NC(=O)[C@H](CCC(=O)O)NC1=O [indium-111 labelled]", "test system": "normal C57 mice, stomach", "setting": "intravenous, 0.037 MBq, 24 h", "measurement": "tissue uptake", "value": "0.06 ± 0.02 %ID/g"}
